Results from different studies.
Every numbered part comes from another study and shows a few of its results, in no order. Changes are numbered by the printed parent chain.

Set 1
Target: Sal-like protein 4, full length isoform A (SALL4, Homo sapiens, UniProt Q9UJQ4, residues 1-1053)
UniProt Q9UJQ4, sequence (whole entry, looked up): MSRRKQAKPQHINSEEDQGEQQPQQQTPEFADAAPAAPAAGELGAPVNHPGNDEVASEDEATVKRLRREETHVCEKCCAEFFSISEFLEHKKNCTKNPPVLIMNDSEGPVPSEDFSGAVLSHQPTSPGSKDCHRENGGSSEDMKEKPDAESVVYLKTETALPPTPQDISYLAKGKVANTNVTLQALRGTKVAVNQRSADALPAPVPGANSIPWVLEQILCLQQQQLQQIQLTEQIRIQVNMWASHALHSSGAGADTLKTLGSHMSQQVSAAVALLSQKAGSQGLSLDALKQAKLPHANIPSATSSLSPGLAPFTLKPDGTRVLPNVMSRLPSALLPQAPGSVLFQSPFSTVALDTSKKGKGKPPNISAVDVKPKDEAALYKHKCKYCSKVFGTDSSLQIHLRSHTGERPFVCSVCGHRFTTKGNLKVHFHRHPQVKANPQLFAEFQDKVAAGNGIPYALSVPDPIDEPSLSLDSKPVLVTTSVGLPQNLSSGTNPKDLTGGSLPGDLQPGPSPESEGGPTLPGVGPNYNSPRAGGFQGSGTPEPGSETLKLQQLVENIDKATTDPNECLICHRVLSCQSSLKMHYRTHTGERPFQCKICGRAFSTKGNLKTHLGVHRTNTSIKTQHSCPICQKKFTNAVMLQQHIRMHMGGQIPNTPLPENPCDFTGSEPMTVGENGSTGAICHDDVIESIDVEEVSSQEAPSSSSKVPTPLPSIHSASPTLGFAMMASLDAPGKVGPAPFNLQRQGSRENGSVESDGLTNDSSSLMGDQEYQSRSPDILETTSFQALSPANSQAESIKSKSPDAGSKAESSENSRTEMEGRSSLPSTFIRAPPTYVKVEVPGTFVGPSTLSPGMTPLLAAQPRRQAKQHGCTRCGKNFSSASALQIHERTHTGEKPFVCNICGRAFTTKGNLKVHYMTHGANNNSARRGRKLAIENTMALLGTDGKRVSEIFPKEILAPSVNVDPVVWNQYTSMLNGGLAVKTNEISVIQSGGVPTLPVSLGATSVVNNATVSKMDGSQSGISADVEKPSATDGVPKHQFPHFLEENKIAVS
Method: universal PBM
Molecule type: double-stranded DNA, one strand shown
Medium: in vitro
Tested at: 600 nM
Notes: 8-mer, flanks averaged, mean of replicates
Reading: higher = stronger binding
`AGTCTGCA` has an E-score of -0.174.
With `GGGGTGAA` the E-score was -0.169.
`CGCTAGCA` has an E-score of -0.156.
For `CGTATGAG`, the E-score was 0.0642.
For `CGCTCTAG`, the E-score was -0.32.
`GACGCCAA` gave an E-score of -0.193.
For `ACCTCTTG`, the E-score was -0.248.
`CTTGCCAA` has an E-score of 0.0321.
`ACACTAAT` gave an E-score of 0.217.
`ATTACAGA` gave an E-score of 0.277.
With `ACATTGTC` the E-score was 0.173.
`AAGGACTC` has an E-score of -0.0792.
With `ACAGAACA` the E-score was 0.0775.
For `ACCTAAGT`, the E-score was 0.076.

Set 2
Target: RNA binding protein fox-1 homolog 2, RRM domain, GST-SBP tag (RBFOX2, Homo sapiens, UniProt O43251-10, residues 100-194)
Method: RNA Bind-n-Seq
Molecule type: RNA
Medium: in vitro
Tested at: 365 nM
Notes: natural RNA segment, single round, ends assumed
Relative to: no-protein control
Reading: higher = stronger binding
Shared flanks, not repeated: GGGAGUUCUACAGUCCGACGAUC … UGGAAUUCUCGGGUGCCAA
Target sequence (chain): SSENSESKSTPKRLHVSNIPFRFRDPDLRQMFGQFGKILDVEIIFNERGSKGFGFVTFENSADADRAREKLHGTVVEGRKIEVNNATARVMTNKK
Under “RBNS enrichment (R)”, `AGAUAACAUACCACAACACAAUGGAUAAUGUAUUUUAGAUAUAUUCUCUAAUAAAAUUGAGAACUCUAUUCUGGGUGCCUGAUUGUCUGCGCCACAGGGACAGAAAUGGG` is recorded as 0.873.
Under “RBNS enrichment (R)”, `UGCCCUUGCUCUGUUUCUGCUCCUCACCGGCUGUCAUUACAUGCUACACUGAGGCUUUAAAAACACAAGGUCCCCCAAGGCUUCCUAGAAAUUGAAAUCUUUGCCUAGGC` is recorded as 0.245.
Under “RBNS enrichment (R)”, `CUAGGGACGUAUCUUCAAACUCCAUUUCUUCCUCUGUAGUAGCCCAGUCCAGGACUUUGGAACCCUGGUCUCAUUCACCCCAAAUAUACUUCUUGCUGAUCAUGCGUUGU` is recorded as 0.418.
For `CCGAGGCAGGGUCCAAACCUGAGUGAGGGCCAGCCAUGCCUCCCCUCCCAUUCCUCUGGUCCCUGCCUUGGUCCCUUGCCUGGGAAGAGGGCGAGGAGGCCAGUGGUGGG`, “RBNS enrichment (R)” read 0.337.
`UCCAGAGGAGUCCUUCCCGAGAGCUGGCAAGUCUUUGAGCUGUAGCUUGAAUGGGCUGUCGGGGGACACUGGAAGGGAGUAAGCAGCUUUUUGAAAAUGUUAAUACAUUA`: “RBNS enrichment (R)” 2.5.
`CCAGGGCAGGGCCCCAGGCAUUGCCAAGGGCUUUGUUUUGCACACUUUGCCAUAUUUUCACCAUUUGAUUAUGUAGCAAAAUACAUGACAUUUAUUUUUCAUUUAGUUUG` — result for “RBNS enrichment (R)”: 0.292.
Under “RBNS enrichment (R)”, `CAAAAUUGUGUUCUAUCUCUACCUCGACAUGGGUGGUUCAACACAAAGUCGGUUAUUGGUGUCUAUUUUGUGUAUUUUCUUUUGUUAAUAAAGAUGCAAUUGAGAAUAUU` is recorded as 0.376.
Under “RBNS enrichment (R)”, `UCUGCUCCUCACCUGCAGAAGCCAGUUUGUUUGGCCAUGUGACAAUUGUCCUGUGUUUUUAUAGCACCCAAAUCAUUCUAAAAUAUGAACAUCUAAAAACUUUGCUAGGA` is recorded as 0.507.
`UUUUAUAUAAAUUUCCCACGUUACGGGGCCUUGUUUUGCAUGCUGAUGAAGAACUACUUAAAACUAACAGUUAAAAUCAGCUUGCCUCCCCUAGUAGAAGCAGGUUCUUG`: “RBNS enrichment (R)” 0.935.
For `CUUGACCCUGCUCAACCUUCUCCCUCUAGCACAAGGGAACAUUUCUAGAAAAGUAAAAUCUACUUUUGUAUCAGUGUGAAUAAAGUUAGUGUGUUGUCUGUGCAGCUGCA`, “RBNS enrichment (R)” read 0.485.
For `ACUCCUUUUCUUUACAGCCGAAAUUGCUUUAAGUGAUGGUUAAAUUGACAAAUUAAGAUGUUAAUUUUUAUCGAUGUGAUUUGUAAUUAAGAUAUUUUGAUUUCAAUAAC`, “RBNS enrichment (R)” read 0.35.
`GGAGUGAAAUAACCAAGUCAAAACCAUGUACUAUCUCCUUGGGGGUUAGGGAUGCUAAGAAGAGCCCACAAAUAGAGGAUUACUCUUCCCCUGAAUCUCUAAACUCAGAA`: “RBNS enrichment (R)” 0.249.

Set 3
Target: CCND3, cyclin fold, Cln2 fusion (human)
Method: yeast growth competition, sequencing
Medium: yeast
Notes: weak parent motif
Relative to: not given
Reading: higher = stronger binding
Parent: PKN2 docking peptide (human); VSAVRKLDFSDTM; partner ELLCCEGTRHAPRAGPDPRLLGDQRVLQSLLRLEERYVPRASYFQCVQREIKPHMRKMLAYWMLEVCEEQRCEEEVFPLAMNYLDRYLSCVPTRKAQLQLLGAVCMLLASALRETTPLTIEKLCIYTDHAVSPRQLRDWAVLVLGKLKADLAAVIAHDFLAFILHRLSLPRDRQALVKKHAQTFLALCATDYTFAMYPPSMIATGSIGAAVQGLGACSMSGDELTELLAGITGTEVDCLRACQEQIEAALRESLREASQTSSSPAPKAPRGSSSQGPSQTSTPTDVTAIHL
Under “normalised enrichment score”, `V4A` is recorded as 1.63.
`R5K` — result for “normalised enrichment score”: 0.186.
Under “normalised enrichment score”, `S2A` is recorded as 0.4.
For `R5V`, “normalised enrichment score” read -0.0403.
For `T12H`, “normalised enrichment score” read 0.94.
`F9A` — result for “normalised enrichment score”: -0.175.
`V4P`: “normalised enrichment score” 0.341.
`S2I`: “normalised enrichment score” 0.506.
`R5L` — result for “normalised enrichment score”: 0.27.
`T12P`: “normalised enrichment score” 1.01.
`S10W` — result for “normalised enrichment score”: 0.454.
`S10I`: “normalised enrichment score” 0.291.
Under “normalised enrichment score”, `V4M` is recorded as 0.9.
For `K6M`, “normalised enrichment score” read 0.547.
For `D11W`, “normalised enrichment score” read -0.221.

Other studies, line by line
`PhoQ, residues 284 288 289 292 302 303 AGCYAI` gave a fold induction of 1.25 (PhoP, residues 12 14 15 18 19 NYFTV (Escherichia coli, UniProt P23836); Sort-seq, measured: YFP reporter; E. coli; PhoQ-PhoP variant library, with: 10 µM Mg2+; relative to: high Mg2+ state, higher = stronger signaling).
